Measured values pooled from the literature.
Every numbered part comes from another study and shows a few of its results, in no order.
Sequence of UniProt Q9UM73 (whole entry, unmodified, looked up): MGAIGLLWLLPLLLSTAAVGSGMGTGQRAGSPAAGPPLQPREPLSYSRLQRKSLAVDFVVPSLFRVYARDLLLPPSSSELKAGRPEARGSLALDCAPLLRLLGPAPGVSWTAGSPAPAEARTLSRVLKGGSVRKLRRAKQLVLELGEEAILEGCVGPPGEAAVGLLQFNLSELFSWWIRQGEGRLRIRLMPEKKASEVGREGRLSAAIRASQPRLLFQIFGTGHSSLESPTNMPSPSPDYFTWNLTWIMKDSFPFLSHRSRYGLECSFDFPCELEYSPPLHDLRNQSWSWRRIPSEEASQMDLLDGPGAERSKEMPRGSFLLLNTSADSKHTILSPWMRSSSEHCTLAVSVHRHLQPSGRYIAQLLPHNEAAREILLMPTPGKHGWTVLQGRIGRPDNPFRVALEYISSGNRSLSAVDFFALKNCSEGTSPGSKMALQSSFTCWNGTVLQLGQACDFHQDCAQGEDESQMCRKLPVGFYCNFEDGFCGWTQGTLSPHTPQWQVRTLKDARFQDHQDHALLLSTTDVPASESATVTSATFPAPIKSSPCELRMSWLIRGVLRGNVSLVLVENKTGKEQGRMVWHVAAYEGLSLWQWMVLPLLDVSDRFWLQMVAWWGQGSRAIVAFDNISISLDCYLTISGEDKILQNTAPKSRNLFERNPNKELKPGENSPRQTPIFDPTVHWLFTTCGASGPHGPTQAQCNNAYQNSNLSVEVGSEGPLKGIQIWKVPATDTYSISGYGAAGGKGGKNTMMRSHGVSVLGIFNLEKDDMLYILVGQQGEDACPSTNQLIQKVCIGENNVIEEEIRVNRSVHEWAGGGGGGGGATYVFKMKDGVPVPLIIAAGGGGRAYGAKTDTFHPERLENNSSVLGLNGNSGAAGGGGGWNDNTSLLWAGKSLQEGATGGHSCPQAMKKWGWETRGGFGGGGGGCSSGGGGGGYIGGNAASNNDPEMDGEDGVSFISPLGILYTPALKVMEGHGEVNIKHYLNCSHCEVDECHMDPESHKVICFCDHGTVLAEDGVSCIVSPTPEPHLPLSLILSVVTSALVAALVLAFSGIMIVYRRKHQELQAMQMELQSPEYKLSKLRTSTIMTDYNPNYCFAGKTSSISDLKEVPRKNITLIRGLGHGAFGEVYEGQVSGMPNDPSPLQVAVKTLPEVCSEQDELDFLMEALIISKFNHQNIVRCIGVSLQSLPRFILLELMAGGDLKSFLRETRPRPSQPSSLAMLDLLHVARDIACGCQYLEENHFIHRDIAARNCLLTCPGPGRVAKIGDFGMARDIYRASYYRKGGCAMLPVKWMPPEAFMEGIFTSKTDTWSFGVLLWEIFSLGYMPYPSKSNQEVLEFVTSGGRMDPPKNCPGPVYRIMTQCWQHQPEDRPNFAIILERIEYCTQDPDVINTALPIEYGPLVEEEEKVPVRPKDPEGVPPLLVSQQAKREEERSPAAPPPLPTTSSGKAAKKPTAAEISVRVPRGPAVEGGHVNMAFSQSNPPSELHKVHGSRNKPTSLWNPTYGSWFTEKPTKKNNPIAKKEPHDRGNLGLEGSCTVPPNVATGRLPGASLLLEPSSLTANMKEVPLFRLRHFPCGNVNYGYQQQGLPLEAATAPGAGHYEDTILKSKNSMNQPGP
Sequence of UniProt P54762 (whole entry, looked up): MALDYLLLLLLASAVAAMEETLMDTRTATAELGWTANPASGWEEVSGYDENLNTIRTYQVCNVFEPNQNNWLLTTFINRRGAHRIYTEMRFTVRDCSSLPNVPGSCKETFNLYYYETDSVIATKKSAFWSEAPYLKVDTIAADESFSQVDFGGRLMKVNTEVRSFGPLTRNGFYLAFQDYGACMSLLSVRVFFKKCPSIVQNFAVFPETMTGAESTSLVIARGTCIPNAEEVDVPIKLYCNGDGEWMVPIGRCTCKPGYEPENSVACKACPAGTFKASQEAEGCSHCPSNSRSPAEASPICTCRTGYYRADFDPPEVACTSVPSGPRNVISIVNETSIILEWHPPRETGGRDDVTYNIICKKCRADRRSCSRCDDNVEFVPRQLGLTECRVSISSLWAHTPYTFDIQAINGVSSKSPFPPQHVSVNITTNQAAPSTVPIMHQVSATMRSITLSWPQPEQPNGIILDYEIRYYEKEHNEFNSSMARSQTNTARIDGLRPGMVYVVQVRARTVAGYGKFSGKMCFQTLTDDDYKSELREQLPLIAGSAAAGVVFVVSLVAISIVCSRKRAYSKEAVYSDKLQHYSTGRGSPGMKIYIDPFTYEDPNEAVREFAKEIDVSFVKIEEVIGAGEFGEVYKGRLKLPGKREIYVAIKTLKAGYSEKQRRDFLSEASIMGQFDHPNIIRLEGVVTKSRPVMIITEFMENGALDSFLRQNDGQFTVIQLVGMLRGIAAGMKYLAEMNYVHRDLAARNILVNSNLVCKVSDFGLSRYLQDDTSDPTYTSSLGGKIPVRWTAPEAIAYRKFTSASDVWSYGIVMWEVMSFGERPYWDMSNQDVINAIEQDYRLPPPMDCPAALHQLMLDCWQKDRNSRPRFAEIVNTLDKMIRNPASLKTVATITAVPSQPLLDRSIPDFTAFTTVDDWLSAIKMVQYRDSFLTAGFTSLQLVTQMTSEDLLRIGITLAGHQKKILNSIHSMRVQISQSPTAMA
Sequence of UniProt P57058 (whole entry, looked up): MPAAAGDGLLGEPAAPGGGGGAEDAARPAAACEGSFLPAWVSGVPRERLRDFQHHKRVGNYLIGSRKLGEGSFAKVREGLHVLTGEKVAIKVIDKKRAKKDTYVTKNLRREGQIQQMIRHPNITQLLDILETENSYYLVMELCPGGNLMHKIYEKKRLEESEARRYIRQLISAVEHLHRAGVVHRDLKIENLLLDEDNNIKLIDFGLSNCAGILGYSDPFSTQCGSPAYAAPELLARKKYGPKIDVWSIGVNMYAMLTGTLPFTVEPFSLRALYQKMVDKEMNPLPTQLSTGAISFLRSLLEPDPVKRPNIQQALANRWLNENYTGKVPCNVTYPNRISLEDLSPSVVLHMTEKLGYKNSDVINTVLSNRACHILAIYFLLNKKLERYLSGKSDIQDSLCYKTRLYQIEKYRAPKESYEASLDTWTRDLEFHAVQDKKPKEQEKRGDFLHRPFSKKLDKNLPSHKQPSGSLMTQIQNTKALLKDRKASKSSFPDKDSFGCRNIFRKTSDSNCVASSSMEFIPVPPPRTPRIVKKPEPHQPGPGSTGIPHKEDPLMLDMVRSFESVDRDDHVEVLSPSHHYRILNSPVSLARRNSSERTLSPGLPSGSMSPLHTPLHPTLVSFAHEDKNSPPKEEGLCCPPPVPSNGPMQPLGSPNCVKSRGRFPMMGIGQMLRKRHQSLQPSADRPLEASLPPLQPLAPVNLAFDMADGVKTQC
Sequence of UniProt Q9UKE5 (whole entry, looked up): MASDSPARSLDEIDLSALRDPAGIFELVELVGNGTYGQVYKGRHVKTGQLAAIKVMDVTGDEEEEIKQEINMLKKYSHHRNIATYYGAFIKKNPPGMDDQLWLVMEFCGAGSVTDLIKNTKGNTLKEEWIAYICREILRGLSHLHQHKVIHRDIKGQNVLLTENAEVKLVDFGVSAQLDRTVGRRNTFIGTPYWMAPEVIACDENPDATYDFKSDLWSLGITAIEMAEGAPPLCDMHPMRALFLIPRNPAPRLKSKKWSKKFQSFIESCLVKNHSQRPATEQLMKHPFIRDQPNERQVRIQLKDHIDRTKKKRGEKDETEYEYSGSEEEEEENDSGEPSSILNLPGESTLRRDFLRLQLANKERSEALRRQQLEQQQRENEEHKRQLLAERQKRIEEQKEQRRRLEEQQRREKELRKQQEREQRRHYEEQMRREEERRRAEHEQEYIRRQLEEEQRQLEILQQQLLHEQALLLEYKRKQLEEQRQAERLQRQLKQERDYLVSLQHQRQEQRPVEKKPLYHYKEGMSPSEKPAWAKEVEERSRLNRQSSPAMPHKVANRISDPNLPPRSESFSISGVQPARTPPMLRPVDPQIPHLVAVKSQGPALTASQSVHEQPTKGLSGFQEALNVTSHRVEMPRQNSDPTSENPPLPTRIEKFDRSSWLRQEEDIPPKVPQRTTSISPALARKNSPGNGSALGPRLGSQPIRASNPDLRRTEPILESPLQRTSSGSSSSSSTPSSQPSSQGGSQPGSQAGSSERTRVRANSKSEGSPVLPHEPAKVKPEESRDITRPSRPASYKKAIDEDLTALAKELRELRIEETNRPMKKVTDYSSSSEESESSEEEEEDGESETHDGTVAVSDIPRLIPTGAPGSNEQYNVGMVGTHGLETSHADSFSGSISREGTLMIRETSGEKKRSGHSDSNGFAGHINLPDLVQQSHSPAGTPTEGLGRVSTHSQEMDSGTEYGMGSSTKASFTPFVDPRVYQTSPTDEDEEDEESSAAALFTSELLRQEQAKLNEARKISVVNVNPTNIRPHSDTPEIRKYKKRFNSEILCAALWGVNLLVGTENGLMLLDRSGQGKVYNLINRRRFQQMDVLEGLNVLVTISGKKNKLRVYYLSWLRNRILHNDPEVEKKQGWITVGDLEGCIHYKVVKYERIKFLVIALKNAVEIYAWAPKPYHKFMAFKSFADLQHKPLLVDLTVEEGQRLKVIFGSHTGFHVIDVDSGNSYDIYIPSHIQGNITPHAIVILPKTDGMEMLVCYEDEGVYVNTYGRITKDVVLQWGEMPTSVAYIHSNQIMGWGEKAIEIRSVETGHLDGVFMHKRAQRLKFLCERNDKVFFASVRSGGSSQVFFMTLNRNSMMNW

Study 1 — technique: RNA Bind-n-Seq; form: RNA; matrix: in vitro; tested at: not given; baseline: input RNA pool; reading: higher = stronger binding
Target: RING finger protein unkempt homolog, zinc fingers 1-6, GST-SBP tag (UNK, Homo sapiens, UniProt Q9C0B0, residues 30-357)
Sequence of UniProt Q9C0B0 (30-357, looked up): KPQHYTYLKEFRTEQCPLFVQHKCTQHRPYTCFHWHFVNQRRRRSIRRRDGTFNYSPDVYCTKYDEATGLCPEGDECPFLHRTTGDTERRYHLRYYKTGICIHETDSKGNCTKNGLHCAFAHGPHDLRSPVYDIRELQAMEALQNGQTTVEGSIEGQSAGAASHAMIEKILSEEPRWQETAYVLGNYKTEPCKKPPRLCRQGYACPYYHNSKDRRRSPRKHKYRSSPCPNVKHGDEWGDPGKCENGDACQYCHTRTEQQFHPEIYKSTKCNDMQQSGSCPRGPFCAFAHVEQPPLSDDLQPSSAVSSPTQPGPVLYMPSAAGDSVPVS
Notes: RNA with constant flanks, human-mouse chimeric sites, ends assumed
Shared flanks, not repeated: GGGAGUUCUACAGUCCGACGAUC … CAACAGAGGAUUGAGCAUCA
Oligonucleotide	bound/input enrichment
CUGGGCUUCUCUUUUCUUUCUUUCCUUAAAAGCCUAACUAAAGAUUAGGUUGUAAGAAAAACAGAAGCCAUGUUUCGAAGACCUGUGUUACAGGUAUUUCGUCAGUUUGUAAGACAUGAG	0.233 ratio
GCACUUCUCAAAUACUGGCCAAAGACUCACAGUCCAAAAGAAGUAAUGUUCUUAAAUGAAUUAGAAGAGAUUUUAGAUGUCAUUGAACCAUCAGAGUUUGUGAAGAUCAUGGAGCCUCUU	0.204 ratio
GUGCCCUCCUUCUCGCUGCGGAGCCCGAGCUGGGAACCAUUCCGGGACGACUGGUACGCACACAGCCGCCUCUUCGAUCAAGCUUUCGGGGUGCCCCGGUUGCCCGAUGAGUGGUCGCAG	0.111 ratio
GUAAUGGACGUCAACACUGCUCUACAAGAGGUUCUGAAGACCGCCCUCAUCCACGAUGGCCUAGCACGUGGCAUACGCGAAGCUGCCAAAGCCUUAGACAAGCGCCAAGCCCAUCUUUGU	0.103 ratio
UCUUUAAAUGCACUACAACCUUUUCUGACAGUGCUUUCCCUCCCAUAGAUCCACGUUCAAGCUCAAAGAGCAAAGGCUUUGCACGGAGCUCAAACAUAAAAGAAAGAAAGAUUUCUGAGA	0.354 ratio
AAUUUCCUGUCAUACUUUGUAGCAAGACACAUCAGACUUACAGAGCACCUGGCCACAUUCUAGGUUUGAAUUAUUUCUCAGCUAUGGAUAUGAUCAAAUGAGAACACUGCUUAACUAAUG	0.345 ratio
UUUGUAUUUAUGCUAAGCACGCGUGCUGGUGGUCUGGGCAUCAAUCUUGCAACUGCUGAUGUAGUCAUUUUAUAUGAUUCUGAUUGGAAUCCGCAAGUUGAUCUUCAGGCUAUGGACCGU	0.18 ratio
AACGUGGAACUAAGUUCCUUGGCCCGGCUUCCCAGCUUGAAUAAACUCCGGAAGUUGGAACUUAGUGAUAAUAUAAUUUCUGGAGGCUUGGAAGUCCUGGCAGAGAAAUGUCCAAAUCUU	1.47 ratio

Study 2 — effect on: cell-free assay; technique: competition with immobilised ligand; tested at: 0.1 µM
Structure (SMILES): CS(=O)(=O)N1CCCC(NC(=O)[C@H](CCC2CCCCC2)NC(=O)c2ccc(CNC(=O)c3cnc4ccccn34)cc2)C1 (some centres unmarked)
target	remaining binding [%]
Ephrin type-B receptor 1 (EPHB1, Homo sapiens, UniProt P54762)	89
TRAF2 and NCK-interacting protein kinase (TNIK, Homo sapiens, UniProt Q9UKE5)	100
Mitogen-activated protein kinase kinase kinase 14 (MAP3K14, Homo sapiens, UniProt Q99558)	100
Vascular endothelial growth factor receptor 2 (KDR, Homo sapiens, UniProt P35968)	96
Tyrosine-protein kinase ABL1, non-phosphorylated (ABL1, Homo sapiens, UniProt P00519, H396P)	35
ALK tyrosine kinase receptor (ALK, Homo sapiens, UniProt Q9UM73, C1156Y)	100
Hormonally up-regulated neu tumor-associated kinase (HUNK, Homo sapiens, UniProt P57058)	100

Study 3 — effect on: enzyme activity; action: inhibitor; tested at: 0.5 µM; baseline: control
Target: Tyrosine-protein kinase SYK (SYK, Homo sapiens, UniProt P43405)
Compound	remaining activity [%]
Cc1cc(Nc2cc(N3CCN(C)CC3)nc(Sc3ccc(NC(=O)C4CC4)cc3)n2)[nH]n1	99.2
O=C1Nc2ccc(Br)cc2/C1=C/c1cc2c([nH]1)CCCC2	90.5
O=C(c1cc2cc(O)ccc2[nH]1)c1cc2cc(O)ccc2[nH]1	72
c1ccc2c(-c3ccncc3)c[nH]c2c1	98.6
N#Cc1cnc2cnc(NCc3cccnc3)cc2c1Nc1ccc(F)c(Cl)c1	94.4
CCCNC(=O)Nc1ccc(Oc2ncnc3cc(OC)c(OC)cc23)cc1Cl	97.5
COc1ccc2c(c1)c(C1=C(c3c[nH]c4ccccc34)C(=O)NC1=O)cn2CCCN(C)C	68.5

Mixed results — technique: cross-linking MS
Substance	partner	system	setting	measurement	value
PHGDH (Homo sapiens, UniProt O43175)	EPN1 (Homo sapiens, UniProt Q9Y6I3)	–	hits only	interaction screen	cross-linked
CAPRIN1 (Homo sapiens, UniProt Q14444)	CFAP45 (Homo sapiens, UniProt Q9UL16)	cell fractions	with: DHSO	cross-linked residues	D94 to E235
NONO (Homo sapiens, UniProt Q15233)	ADGRG6 (Homo sapiens, UniProt Q86SQ4)	cell fractions	with: DMTMM	cross-linked residues	E102 to K1006
BNIP1 (Homo sapiens, UniProt Q12981)	RINT1 (Homo sapiens, UniProt Q6NUQ1)	cell fractions	with: DSSO	cross-linked residues	K111 to K502

A few entries again (study 1):
Oligonucleotide	bound/input enrichment
UCUUUAAAUGCACUACAACCUUUUCUGACAGUGCUUUCCCUCCCAUAGAUCCACGUUCAAGCUCAAAGAGCAAAGGCUUUGCACGGAGCUCAAACAUAAAAGAAAGAAAGAUUUCUGAGA	0.354 ratio
AAUUUCCUGUCAUACUUUGUAGCAAGACACAUCAGACUUACAGAGCACCUGGCCACAUUCUAGGUUUGAAUUAUUUCUCAGCUAUGGAUAUGAUCAAAUGAGAACACUGCUUAACUAAUG	0.345 ratio
UUUGUAUUUAUGCUAAGCACGCGUGCUGGUGGUCUGGGCAUCAAUCUUGCAACUGCUGAUGUAGUCAUUUUAUAUGAUUCUGAUUGGAAUCCGCAAGUUGAUCUUCAGGCUAUGGACCGU	0.18 ratio
AACGUGGAACUAAGUUCCUUGGCCCGGCUUCCCAGCUUGAAUAAACUCCGGAAGUUGGAACUUAGUGAUAAUAUAAUUUCUGGAGGCUUGGAAGUCCUGGCAGAGAAAUGUCCAAAUCUU	1.47 ratio
